Published values gathered from unrelated publications.
Parts stem from different laboratories: compare values within a part only.

Block 1 — method: protein binding microarray; form: double-stranded DNA, one strand shown; medium: in vitro; tested at: not given; relative to: not given; direction: higher = stronger binding
Target: Histone acetyltransferase KAT6A, winged helix 2, GST fusion (KAT6A, Homo sapiens, UniProt Q92794, residues 85-181)
Notes: 8-mer, flanks averaged, mean of 2 arrays, mostly near background
Residues (chain): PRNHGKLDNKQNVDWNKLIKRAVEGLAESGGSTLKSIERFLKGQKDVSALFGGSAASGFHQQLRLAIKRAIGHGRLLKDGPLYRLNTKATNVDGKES
`GTGAACTA` gave an E-score of -0.0539.
With `TCGTGAAA` the E-score was 0.045.
The E-score of `CTCCCGGA` is reported as 0.215.
The E-score of `ACCTTATG` is reported as 0.00342.
For `CGCGCGTA`, the E-score was 0.164.
For `AATTCTGG`, the E-score was 0.017.
For `GGTAATAA`, the E-score was -0.0568.
For `CCACGGCA`, the E-score was 0.0757.
`ACTGACCG` has an E-score of -0.146.
`ACGGCAGG` has an E-score of 0.132.
The E-score of `ACTGTAAA` is reported as -0.0397.
The E-score of `CGATTGGC` is reported as 0.014.
`CTCTGCCC` has an E-score of 0.11.
`AAAGACCT` has an E-score of -0.0984.
With `CTCTGCTC` the E-score was 0.11.
With `AAAGAATG` the E-score was 0.0565.
For `ATCGTGAC`, the E-score was -0.0614.
`GAGATTCA` gave an E-score of 0.0448.
`AAAGTGGC` has an E-score of 0.0348.
The E-score of `AGACCGTC` is reported as -0.169.
For `CGAGACAC`, the E-score was -0.0644.
`ACACTCGG` has an E-score of 0.0701.
With `CAGGACAG` the E-score was 0.142.
For `AGATATCA`, the E-score was -0.0796.

Block 2 — method: RNA Bind-n-Seq; form: RNA; medium: in vitro; tested at: 20 nM; notes: 6-mer, flanks averaged, single round; with: 150 mM LiCl; relative to: input library; direction: higher = stronger binding
Target: TAR DNA-binding protein 43, full length, His tag (TARDBP, Homo sapiens, UniProt Q13148, residues 1-414)
Under “6-mer enrichment (R)”, `CUAACC` is recorded as 0.851.
`GAGCAU` — result for “6-mer enrichment (R)”: 0.924.
`UUCUGG`: “6-mer enrichment (R)” 0.974.
`CGCAAA` — result for “6-mer enrichment (R)”: 0.861.
`UCAGCA` — result for “6-mer enrichment (R)”: 0.827.
Under “6-mer enrichment (R)”, `AAAAAG` is recorded as 0.888.
Under “6-mer enrichment (R)”, `CAGAUG` is recorded as 0.892.
Under “6-mer enrichment (R)”, `GUCGGU` is recorded as 1.14.
Under “6-mer enrichment (R)”, `CACUUG` is recorded as 0.871.
For `CUUGAG`, “6-mer enrichment (R)” read 1.
Under “6-mer enrichment (R)”, `UCCUGG` is recorded as 0.918.
`CUGACU` — result for “6-mer enrichment (R)”: 0.847.
For `AGUGCG`, “6-mer enrichment (R)” read 1.18.
Under “6-mer enrichment (R)”, `CUCAGC` is recorded as 0.849.
Under “6-mer enrichment (R)”, `UCUCUG` is recorded as 0.894.
For `UCGCGU`, “6-mer enrichment (R)” read 0.982.
`AGAAAC` — result for “6-mer enrichment (R)”: 0.791.
`UUUCAU`: “6-mer enrichment (R)” 0.998.
Under “6-mer enrichment (R)”, `GCCUUA` is recorded as 0.983.
`AUAUAG` — result for “6-mer enrichment (R)”: 0.93.
Under “6-mer enrichment (R)”, `AACCCA` is recorded as 0.893.
`UUCAUC`: “6-mer enrichment (R)” 0.855.
`CGAAGU` — result for “6-mer enrichment (R)”: 0.882.

Block 3 — method: protein-binding microarray; form: double-stranded DNA, one strand shown; medium: in vitro; tested at: 0.8 µM; notes: whole 60-bp probe, no competitor; direction: higher = stronger binding; shared flanks, not repeated: … GTCTTGATTCGCTTGACGCTGCTG
Target: Centromere-binding protein 1, full length, N-terminal tag (CBF1, Saccharomyces cerevisiae, UniProt P17106, residues 1-351)
Sequence of UniProt P17106 (whole entry, looked up): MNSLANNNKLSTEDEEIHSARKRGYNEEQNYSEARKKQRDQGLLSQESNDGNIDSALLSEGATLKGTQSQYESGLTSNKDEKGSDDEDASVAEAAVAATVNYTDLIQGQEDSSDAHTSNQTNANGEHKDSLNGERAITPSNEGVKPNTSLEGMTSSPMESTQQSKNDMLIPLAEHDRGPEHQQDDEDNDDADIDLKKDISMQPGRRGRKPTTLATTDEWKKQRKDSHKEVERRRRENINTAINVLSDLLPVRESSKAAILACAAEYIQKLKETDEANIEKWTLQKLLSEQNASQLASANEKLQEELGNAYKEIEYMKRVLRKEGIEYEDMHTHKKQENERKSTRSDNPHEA
For `CTATTAGAAGGATACTACGTGGGGTTCAAAACCTTC`, the fluorescence intensity was 476 a.u.
For `CTATTGGCGACGCGTCACCTGGGACGGGAATTTTTC`, the fluorescence intensity was 722 a.u.
`CTATAATATCATGAACAGGTGATAGTAGAATGTTTC` gave a fluorescence intensity of 1160 a.u.
The fluorescence intensity of `CTACAATAACATATGCACATGGCAACGGGTCTTTTC` is reported as 679 a.u.
`GAAACGCCACCCAGGTGACTTTTGCGCTAAGTGTAG` has a fluorescence intensity of 1010 a.u.
The fluorescence intensity of `GAACATTATCTACGTGATTATACATATAGTTATTAG` is reported as 1050 a.u.
The fluorescence intensity of `GAATACTACAGCCATCATCACAAACACTGCTAATAG` is reported as 574 a.u.
With `TGTACGAAGCTATATTACACGAGTATAGTAGTTAGG` the fluorescence intensity was 576 a.u.
For `GAAGATCAAGAAACGCACGCTTTACATCACACATAG`, the fluorescence intensity was 558 a.u.
For `CTAAAACTCACTTAGCACGCATTATTGCCGGAATTC`, the fluorescence intensity was 520 a.u.
`CTATTCAGAGATGATCACGTGATATAAACGTGATTC` has a fluorescence intensity of 32500 a.u.
The fluorescence intensity of `CTAACTCAAAGATTGCATGATCACCATCAGAATTTC` is reported as 569 a.u.
With `CTAAGTTATAATTATGGTGTGAGAGTTGAAATATTC` the fluorescence intensity was 535 a.u.
`CTATCGAGATCACTTTTCGTGATCCGCTAATCATTC` has a fluorescence intensity of 728 a.u.
`GAAAGCCTTTGAATGATCGTGCTGACTGTAATTTAG` gave a fluorescence intensity of 550 a.u.
With `GAAGAACCTTTACTACATGTGCTGACAACCAAATAG` the fluorescence intensity was 727 a.u.
With `GAAATATTGTTTCACCTGTTCATCTTTAATAGATAG` the fluorescence intensity was 608 a.u.
`GAATTCTTTTACAGTTATGTGATCATCAAGAACTAG` gave a fluorescence intensity of 594 a.u.
With `CCTAACTACTATATCGAGGTCACATAGCTTCGTACA` the fluorescence intensity was 598 a.u.

Block 4 — method: RNA Bind-n-Seq; form: RNA; medium: in vitro; tested at: 200 nM; notes: whole 134-nt RNA, ends assumed; with: 150 mM LiCl; relative to: input library; direction: higher = stronger binding; all molecules: 7-deaza-guanosine replaces G
Target: Fragile X messenger ribonucleoprotein 1, C-terminal low-complexity region (Fmr1, Mus musculus, UniProt P35922)
Shared flanks, not repeated: GGGAGUUCUACAGUCCGACGAUC … UGGAAUUCUCGGGUGUCAAGG
The log2 enrichment of `AGUCCUGUGCUACACAUCGUAUGUACCGAAUCGGGGUUUUGGGGUUUUGGGGUUUUGGAAAGUAUUAUGUUACGCCGUUCGGAUCUGCAC` is reported as -0.744.
`UGGCCCUGGUGGCAUGCGGGGAGGAAGAGGUGGCCUCAUGGAUCGUGGUGGUCCCGGUGGAAUGUUCAGAGGUGGCCGUGGUGAAGACAG` gave a log2 enrichment of -0.932.
`UAACUUUAGAGGAGGACCUGAUGGAUAUGGCAGUGGACGUGGAUUUGGGGAUGGCUAUAAUGGGUAUGGAGGAGGACCUGGAGGUGGCAA` gave a log2 enrichment of -0.387.
With `CUCAAGUCCUGUGCUACACAUCGUAUGUACCGAAUCGGAAAGGAGGUUUUUGGAAAGUAUUAUGUUACGCCGUUCGGAUCUGCACUUCCA` the log2 enrichment was -0.585.
`CAAGUCCUGUGCUACACAUCGUAUGUACCGAAUCGGAAAAAGGAAAGGAAAAAGGAAAGUAUUAUGUUACGCCGUUCGGAUCUGCACUUC` has a log2 enrichment of -0.766.
`CCUCAAGUCCUGUGCUACACAUCGUAUGUACCGAAUCGGAGGGGAGGAGGGGAAAGUAUUAUGUUACGCCGUUCGGAUCUGCACUUCCAG` gave a log2 enrichment of -0.418.
`AGUCCUGUGCUACACAUCGUAUGUACCGAAUCGGUUUUUGGAAAAAGGAAAAAAAGGAAAGUAUUAUGUUACGCCGUUCGGAUCUGCACU` has a log2 enrichment of -2.59.
For `CACAGACAACACGCACCCACACAGACACAGAGGGAAGGGGUUGGGAUGGGGACAGGGUGCACAGCAGGGCGGGGUAGCACCCCAGCCCCU`, the log2 enrichment was 1.62.
